Assay results gathered from unrelated publications.
Each line is one published result; not all experiments were run side by side. ± marks the error that the study gave.
UniProt P18177, sequence (whole entry, looked up): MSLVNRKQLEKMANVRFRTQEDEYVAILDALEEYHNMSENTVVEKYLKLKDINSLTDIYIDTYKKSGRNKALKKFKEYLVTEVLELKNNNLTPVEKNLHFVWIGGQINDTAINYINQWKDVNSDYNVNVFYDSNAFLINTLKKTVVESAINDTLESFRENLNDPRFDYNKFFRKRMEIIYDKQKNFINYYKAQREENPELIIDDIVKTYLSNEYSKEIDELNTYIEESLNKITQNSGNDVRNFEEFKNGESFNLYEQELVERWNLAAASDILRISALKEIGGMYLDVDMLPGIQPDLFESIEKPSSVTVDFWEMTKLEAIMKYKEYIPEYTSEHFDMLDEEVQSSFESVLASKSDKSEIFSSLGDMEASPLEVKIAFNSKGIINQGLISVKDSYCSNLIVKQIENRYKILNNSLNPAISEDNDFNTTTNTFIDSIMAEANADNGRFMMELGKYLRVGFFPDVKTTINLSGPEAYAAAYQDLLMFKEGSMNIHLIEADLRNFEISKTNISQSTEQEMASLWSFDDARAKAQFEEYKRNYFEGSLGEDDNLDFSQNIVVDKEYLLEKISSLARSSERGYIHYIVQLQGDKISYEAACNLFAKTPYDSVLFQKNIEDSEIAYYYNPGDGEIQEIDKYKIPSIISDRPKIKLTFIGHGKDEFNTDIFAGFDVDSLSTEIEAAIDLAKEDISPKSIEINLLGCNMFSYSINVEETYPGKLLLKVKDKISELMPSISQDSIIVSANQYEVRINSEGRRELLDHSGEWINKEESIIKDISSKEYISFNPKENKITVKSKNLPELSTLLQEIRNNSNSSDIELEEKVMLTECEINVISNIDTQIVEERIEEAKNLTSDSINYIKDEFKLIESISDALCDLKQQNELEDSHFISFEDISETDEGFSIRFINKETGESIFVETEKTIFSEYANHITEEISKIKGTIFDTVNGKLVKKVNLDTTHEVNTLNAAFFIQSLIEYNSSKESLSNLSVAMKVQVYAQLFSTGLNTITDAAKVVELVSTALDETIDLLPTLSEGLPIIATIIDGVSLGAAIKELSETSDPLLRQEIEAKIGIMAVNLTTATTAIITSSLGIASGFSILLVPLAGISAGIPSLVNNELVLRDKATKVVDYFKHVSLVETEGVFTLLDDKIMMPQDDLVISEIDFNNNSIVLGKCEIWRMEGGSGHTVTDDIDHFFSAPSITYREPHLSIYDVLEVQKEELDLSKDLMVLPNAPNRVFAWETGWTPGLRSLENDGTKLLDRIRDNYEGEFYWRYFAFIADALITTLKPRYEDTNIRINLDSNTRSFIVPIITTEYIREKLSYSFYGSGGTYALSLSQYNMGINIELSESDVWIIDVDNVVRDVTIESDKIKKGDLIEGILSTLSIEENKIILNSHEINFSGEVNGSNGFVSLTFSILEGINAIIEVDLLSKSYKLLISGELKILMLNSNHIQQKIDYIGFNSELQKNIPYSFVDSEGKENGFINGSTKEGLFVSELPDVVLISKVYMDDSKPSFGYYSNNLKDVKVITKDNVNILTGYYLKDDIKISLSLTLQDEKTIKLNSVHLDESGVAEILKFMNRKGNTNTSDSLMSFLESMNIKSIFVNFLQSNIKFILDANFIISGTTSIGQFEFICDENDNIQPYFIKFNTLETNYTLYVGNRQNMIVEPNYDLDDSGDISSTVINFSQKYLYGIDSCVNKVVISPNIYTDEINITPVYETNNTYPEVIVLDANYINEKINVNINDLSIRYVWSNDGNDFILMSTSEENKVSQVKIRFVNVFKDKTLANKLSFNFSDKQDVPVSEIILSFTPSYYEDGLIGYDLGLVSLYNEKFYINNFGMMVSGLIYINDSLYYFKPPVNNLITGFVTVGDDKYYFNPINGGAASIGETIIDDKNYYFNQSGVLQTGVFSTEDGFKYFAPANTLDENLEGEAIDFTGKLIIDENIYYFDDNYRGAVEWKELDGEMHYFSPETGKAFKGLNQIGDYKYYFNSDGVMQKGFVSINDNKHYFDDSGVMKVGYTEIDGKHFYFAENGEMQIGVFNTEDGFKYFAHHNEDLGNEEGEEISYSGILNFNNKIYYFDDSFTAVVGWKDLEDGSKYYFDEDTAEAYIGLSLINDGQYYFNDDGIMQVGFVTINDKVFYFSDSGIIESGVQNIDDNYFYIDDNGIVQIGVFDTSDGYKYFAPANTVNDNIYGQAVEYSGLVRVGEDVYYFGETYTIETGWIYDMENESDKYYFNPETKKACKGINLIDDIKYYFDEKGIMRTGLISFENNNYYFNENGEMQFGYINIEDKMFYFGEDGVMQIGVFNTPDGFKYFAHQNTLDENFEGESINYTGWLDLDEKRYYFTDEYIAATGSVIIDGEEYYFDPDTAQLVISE
UniProt Q8JUX6, sequence (whole entry, looked up): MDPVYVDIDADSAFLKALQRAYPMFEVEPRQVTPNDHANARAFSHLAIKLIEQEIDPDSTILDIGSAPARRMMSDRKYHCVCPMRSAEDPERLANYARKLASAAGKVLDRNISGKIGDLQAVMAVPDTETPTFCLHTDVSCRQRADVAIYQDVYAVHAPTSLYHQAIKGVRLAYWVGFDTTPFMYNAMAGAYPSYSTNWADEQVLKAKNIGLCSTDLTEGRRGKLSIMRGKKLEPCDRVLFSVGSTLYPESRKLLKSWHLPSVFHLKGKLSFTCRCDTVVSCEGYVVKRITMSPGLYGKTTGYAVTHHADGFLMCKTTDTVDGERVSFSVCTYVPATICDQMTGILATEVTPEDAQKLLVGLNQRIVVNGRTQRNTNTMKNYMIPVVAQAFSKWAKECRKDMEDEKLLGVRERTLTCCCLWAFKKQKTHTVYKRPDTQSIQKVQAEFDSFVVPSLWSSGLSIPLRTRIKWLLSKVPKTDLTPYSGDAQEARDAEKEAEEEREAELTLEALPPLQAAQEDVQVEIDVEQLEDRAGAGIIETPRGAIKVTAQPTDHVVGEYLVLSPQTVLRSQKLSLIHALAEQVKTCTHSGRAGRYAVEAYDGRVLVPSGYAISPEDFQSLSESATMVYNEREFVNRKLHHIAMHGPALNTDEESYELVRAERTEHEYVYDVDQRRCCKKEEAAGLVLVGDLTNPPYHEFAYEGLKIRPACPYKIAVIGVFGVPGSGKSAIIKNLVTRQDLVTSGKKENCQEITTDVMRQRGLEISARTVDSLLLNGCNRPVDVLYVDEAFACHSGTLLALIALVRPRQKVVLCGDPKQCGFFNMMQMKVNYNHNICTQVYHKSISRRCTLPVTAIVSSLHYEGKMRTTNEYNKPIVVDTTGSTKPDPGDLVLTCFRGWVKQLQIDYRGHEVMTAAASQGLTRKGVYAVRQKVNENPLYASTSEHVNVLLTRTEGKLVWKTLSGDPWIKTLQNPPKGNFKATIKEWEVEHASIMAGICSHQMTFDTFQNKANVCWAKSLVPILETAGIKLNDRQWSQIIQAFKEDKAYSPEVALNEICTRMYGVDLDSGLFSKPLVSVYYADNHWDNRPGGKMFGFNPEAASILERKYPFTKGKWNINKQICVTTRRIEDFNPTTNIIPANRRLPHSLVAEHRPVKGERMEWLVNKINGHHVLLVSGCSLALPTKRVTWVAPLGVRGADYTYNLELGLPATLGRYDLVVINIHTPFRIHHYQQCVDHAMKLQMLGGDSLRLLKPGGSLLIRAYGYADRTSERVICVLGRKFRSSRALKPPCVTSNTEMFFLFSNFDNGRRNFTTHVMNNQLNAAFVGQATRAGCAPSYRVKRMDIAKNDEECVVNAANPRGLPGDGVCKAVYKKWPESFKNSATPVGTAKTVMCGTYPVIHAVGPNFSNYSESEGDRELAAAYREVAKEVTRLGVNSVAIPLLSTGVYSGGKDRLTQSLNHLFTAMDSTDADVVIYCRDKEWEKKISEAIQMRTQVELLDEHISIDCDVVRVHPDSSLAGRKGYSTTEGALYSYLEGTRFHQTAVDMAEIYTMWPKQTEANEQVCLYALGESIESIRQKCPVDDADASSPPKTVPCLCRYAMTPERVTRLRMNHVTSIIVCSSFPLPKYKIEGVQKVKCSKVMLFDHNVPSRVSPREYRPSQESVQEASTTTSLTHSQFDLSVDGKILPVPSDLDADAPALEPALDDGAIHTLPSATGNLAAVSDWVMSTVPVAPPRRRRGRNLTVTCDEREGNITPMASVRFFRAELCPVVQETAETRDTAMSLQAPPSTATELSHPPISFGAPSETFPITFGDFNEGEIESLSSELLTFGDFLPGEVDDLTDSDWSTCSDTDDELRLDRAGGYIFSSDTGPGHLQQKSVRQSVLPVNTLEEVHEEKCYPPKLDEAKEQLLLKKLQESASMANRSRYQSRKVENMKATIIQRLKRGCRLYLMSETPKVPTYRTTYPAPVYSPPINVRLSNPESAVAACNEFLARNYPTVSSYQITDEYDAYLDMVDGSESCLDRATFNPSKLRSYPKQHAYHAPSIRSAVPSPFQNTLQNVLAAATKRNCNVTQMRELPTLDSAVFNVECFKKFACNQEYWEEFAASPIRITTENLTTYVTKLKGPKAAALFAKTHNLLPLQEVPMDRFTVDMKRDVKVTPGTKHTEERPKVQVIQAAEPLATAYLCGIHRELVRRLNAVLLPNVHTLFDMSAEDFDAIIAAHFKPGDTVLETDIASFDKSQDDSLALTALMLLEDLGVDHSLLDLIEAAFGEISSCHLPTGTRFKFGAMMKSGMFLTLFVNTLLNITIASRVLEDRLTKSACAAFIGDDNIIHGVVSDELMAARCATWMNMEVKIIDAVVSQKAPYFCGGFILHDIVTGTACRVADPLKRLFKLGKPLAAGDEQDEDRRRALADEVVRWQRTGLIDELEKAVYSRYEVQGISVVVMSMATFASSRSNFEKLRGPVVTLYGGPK

CC(C)C[C@@H]1NC(=O)[C@H](Cc2c[nH]cn2)NC(=O)[C@H](CCCCN)NC(=O)[C@@H]2CSSC[C@H](NC(=O)[C@@H](N)[C@@H](C)O)C(=O)N[C@@H](CCCNC(=N)N)C(=O)N[C@@H](Cc3ccc(O)cc3)C(=O)N[C@@H](CC(C)C)C(=O)N[C@@H](Cc3ccccc3)C(=O)NCC(=O)NCC(=O)N[C@H]3CSSC[C@H](NC(=O)[C@H](C)NC1=O)C(=O)N[C@@H](CCCNC(=N)N)C(=O)N[C@@H](CO)C(=O)N[C@@H](C)C(=O)NCC(=O)N[C@@H](CCCCN)C(=O)N[C@@H](Cc1ccc(O)cc1)C(=O)N[C@H](C(=O)N[C@@H](C)C(=O)N[C@@H](Cc1c[nH]c4ccccc14)C(=O)N[C@@H](CC(=O)O)C(=O)NCC(=O)N[C@H](C(=O)N[C@@H](Cc1ccccc1)C(=O)O)[C@@H](C)O)CSSC[C@H](NC(=O)[C@H](CC(=O)O)NC(=O)[C@H](C)NC(=O)[C@H]([C@@H](C)O)NC(=O)[C@H]([C@@H](C)O)NC(=O)[C@H](CCCCN)NC3=O)C(=O)N2  mole fraction partition coefficient (Trp fluorescence titration; POPC:POPG LUVs; pH 7, 2 µM toxin): 1e+07 ± 300000
NC1=N[C@H](O)[C@H]2[C@H]3O[C@]4(O)O[C@@H]([C@@H](O)[C@@]2(N1)[C@@H]4O)[C@]3(O)CO  surface GluA1 puncta intensity (mouse primary hippocampal neurons; concentration not given; relative to: untreated): ~1.6 fold
NC(=O)c1ncn([C@@H]2O[C@H](CO)[C@@H](O)[C@H]2O)n1  EC50 (Lassa virus; HeLa, clade III Nigeria-231): 2.38 ± 0.4 µM
O=P(O)(O)OC1C(OP(=O)(O)O)C(OP(=O)(O)O)C(OP(=O)(O)O)C(OP(=O)(O)O)C1OP(=O)(O)O (centres unmarked)  EC50 (Toxin B (tcdB, Clostridioides difficile, UniProt P18177); autoprocessing, activator, SDS-PAGE densitometry; 10463; 1 h): 4.7 ± 0.9 µM
NC(=O)c1nc(F)c[nH]c1=O  EC50 (Lassa virus; HeLa, clade II Nigeria-322): 47.3 ± 12.5 µM
FC(F)(F)c1cc(C(F)(F)F)c2ccc3nc(-c4nnco4)cn3c2n1  Kd (Polyprotein P1234, nsP4 (Chikungunya virus, UniProt Q8JUX6); microscale thermophoresis; Chikungunya virus S27; approximate, saturation not reached): > 207 µM
CC(C)C[C@@H]1NC(=O)[C@H](Cc2c[nH]cn2)NC(=O)[C@H](CCCCN)NC(=O)[C@@H]2CSSC[C@H](NC(=O)[C@@H](N)CCC(=O)O)C(=O)N[C@@H](CCCNC(=N)N)C(=O)N[C@@H](Cc3ccc(O)cc3)C(=O)N[C@@H](CC(C)C)C(=O)N[C@@H](Cc3ccccc3)C(=O)NCC(=O)NCC(=O)N[C@H]3CSSC[C@H](NC(=O)CNC1=O)C(=O)N[C@@H](CCCCN)C(=O)N[C@@H](Cc1ccccc1)C(=O)N[C@@H](CCCNC(=N)N)C(=O)N[C@@H](CC(=O)O)C(=O)N[C@@H](CCCCN)C(=O)N[C@@H](Cc1ccc(O)cc1)C(=O)N[C@H](C(=O)N[C@@H](C)C(=O)N[C@@H](Cc1c[nH]c4ccccc14)C(=O)N[C@@H](CC(=O)O)C(=O)N[C@@H](Cc1ccccc1)C(=O)N[C@H](C(=O)N[C@@H](Cc1ccccc1)C(=O)N[C@@H](CO)C(=O)O)[C@@H](C)O)CSSC[C@H](NC(=O)[C@H](CC(=O)O)NC(=O)[C@H](CO)NC(=O)[C@H]([C@@H](C)O)NC(=O)[C@H]([C@@H](C)O)NC(=O)[C@H](CCCCN)NC3=O)C(=O)N2  mole fraction partition coefficient (Trp fluorescence titration; POPC:POPG LUVs; pH 7, 2 µM toxin): 4.8e+06 ± 400000
N#Cc1c(Cl)c(Cl)c(Cl)c(Cl)c1C#N  inhibition (MERS-CoV spike VSV pseudovirus; pseudovirus entry; 10 µM): 57%

Some of these lines once more:
NC(=O)c1ncn([C@@H]2O[C@H](CO)[C@@H](O)[C@H]2O)n1  EC50 (Lassa virus; HeLa, clade III Nigeria-231): 2.38 ± 0.4 µM
